Experimental data from different studies.
A part holds a random share of what one study measured. Substitutions count along the parent as printed.
UniProt P06213, sequence (whole entry, looked up): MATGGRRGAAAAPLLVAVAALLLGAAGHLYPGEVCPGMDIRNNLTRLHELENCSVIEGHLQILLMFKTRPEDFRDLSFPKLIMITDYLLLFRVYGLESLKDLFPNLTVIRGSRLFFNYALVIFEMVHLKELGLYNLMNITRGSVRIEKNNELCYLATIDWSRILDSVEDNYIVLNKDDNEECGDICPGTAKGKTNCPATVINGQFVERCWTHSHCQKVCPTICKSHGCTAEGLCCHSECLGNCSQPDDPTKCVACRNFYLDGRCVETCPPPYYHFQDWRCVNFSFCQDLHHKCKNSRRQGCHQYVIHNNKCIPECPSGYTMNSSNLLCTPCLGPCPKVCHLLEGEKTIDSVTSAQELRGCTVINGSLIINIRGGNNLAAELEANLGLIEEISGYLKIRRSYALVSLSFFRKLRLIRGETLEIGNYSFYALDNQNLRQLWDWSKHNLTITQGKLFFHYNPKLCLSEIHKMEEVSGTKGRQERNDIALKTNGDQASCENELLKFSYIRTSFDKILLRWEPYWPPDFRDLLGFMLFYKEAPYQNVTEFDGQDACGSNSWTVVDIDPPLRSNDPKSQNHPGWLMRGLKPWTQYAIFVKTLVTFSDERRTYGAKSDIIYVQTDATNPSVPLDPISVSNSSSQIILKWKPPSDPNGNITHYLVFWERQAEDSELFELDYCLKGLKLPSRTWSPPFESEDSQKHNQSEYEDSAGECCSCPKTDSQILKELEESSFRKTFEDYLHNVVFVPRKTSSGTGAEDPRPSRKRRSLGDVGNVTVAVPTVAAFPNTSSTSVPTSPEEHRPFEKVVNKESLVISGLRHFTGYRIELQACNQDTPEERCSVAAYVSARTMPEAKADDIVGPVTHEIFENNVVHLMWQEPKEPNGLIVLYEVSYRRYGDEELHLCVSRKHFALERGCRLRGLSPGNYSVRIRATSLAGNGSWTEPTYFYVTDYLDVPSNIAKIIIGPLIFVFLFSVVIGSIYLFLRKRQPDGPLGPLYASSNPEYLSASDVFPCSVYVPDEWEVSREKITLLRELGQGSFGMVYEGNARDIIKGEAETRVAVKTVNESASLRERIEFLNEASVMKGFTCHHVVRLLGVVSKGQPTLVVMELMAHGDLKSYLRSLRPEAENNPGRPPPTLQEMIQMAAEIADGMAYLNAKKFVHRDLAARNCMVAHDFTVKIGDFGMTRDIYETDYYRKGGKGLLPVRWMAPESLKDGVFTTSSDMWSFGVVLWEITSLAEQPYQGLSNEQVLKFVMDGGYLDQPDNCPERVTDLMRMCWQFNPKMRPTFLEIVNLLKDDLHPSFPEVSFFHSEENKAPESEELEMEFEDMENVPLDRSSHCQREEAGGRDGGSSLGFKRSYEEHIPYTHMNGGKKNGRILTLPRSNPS

Set 1 — target: tungstate, free oxyanion; technique: microfluidic competitive inhibition; medium: in vitro, cell-free expressed; tested at: not given; reading: lower = stronger binding
Notes: derived from inhibition constants, unchanged parent 2230 nM
Parent: PafA, mature enzyme, eGFP fusion (Elizabethkingia meningoseptica, UniProt Q9KJX5); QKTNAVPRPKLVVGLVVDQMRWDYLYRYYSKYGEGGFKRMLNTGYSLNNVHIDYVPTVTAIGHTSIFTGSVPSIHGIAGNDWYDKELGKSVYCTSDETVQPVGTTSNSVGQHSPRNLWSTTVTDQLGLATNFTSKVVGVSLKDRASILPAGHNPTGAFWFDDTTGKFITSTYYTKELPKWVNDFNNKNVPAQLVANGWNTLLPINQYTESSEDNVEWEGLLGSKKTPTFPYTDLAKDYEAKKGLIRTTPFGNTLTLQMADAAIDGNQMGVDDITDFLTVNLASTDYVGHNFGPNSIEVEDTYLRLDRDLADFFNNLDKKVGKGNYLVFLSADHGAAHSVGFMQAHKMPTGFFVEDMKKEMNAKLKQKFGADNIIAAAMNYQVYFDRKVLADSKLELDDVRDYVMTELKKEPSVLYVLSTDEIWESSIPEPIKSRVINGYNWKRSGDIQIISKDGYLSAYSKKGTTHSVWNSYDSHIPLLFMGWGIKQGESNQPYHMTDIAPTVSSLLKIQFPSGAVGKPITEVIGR
For `S504V`, “oxyanion analog dissociation constant” read 1.93 µM.
`K242G`: “oxyanion analog dissociation constant” 1.54 µM.
`S211G` — result for “oxyanion analog dissociation constant”: 2.29 µM.
`T68G` — result for “oxyanion analog dissociation constant”: 1 µM.
`L396G` — result for “oxyanion analog dissociation constant”: 2.23 µM.
For `S412V`, “oxyanion analog dissociation constant” read 2.36 µM.
For `L220G`, “oxyanion analog dissociation constant” read 1.79 µM.
Under “oxyanion analog dissociation constant”, `L41G` is recorded as 1.87 µM.

Set 2 — read-out: binding; technique: phage display NGS; form: peptide; tested at: concentration not given; notes: panning round 2; baseline: input library
Target: UDP-N-acetylglucosamine--peptide N-acetylglucosaminyltransferase 110 kDa subunit (OGT, Homo sapiens, UniProt O15294)
Target sequence (O15294 1-1046): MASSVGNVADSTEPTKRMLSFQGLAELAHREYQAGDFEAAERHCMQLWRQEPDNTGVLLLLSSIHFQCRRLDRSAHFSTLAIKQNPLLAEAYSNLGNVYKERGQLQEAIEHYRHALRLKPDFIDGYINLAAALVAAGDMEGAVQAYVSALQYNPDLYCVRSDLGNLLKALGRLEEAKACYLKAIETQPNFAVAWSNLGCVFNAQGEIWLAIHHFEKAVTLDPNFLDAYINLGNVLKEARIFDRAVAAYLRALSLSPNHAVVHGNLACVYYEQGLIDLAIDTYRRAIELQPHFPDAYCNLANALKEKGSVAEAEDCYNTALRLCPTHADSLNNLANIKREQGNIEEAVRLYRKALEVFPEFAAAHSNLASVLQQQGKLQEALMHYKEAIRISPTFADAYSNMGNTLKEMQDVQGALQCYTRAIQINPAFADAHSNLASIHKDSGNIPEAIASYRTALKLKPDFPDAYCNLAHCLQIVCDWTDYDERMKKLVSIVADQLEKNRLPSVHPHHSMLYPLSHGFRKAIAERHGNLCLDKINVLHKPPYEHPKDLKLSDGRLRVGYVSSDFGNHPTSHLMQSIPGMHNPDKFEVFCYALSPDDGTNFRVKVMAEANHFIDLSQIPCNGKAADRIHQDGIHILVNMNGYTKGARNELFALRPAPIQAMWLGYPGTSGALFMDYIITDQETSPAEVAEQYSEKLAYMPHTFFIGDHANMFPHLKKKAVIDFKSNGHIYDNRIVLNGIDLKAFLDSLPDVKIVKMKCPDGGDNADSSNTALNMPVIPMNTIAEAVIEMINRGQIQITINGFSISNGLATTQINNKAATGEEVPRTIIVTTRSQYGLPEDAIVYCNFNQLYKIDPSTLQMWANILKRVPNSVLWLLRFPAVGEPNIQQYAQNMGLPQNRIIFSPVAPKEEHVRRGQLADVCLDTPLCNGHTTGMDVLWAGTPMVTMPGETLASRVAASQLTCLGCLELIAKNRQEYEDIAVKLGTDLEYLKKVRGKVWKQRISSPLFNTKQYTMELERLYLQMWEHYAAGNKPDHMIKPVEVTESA
`NTTAPQLVYPPMYQI` — result for “enrichment fold change”: 8.78.
Under “enrichment fold change”, `HVHGASPHSRNHSA` is recorded as 6.13.
`HIKWSTGWHHQGRT`: “enrichment fold change” 3.83.
`HPHGHRNTAISWTAM` — result for “enrichment fold change”: 4.59.
Under “enrichment fold change”, `NIWMPVYQIRYSYNT` is recorded as 17.5.
Under “enrichment fold change”, `HSQHMFEHEHVVKA` is recorded as 4.81.
`TWHGSYKYRQHYAQN` — result for “enrichment fold change”: 4.87.
Under “enrichment fold change”, `QPQHQSNQHVHHRYF` is recorded as 3.22.

Set 3 — target: CCND2, cyclin fold, Cln2 fusion (human); technique: yeast growth competition, sequencing; medium: yeast; notes: weak parent motif; baseline: not given; reading: higher = stronger binding; parent: viral docking peptide; TSVRRALFTGGSD
`TSVRTALFTGGSD [R5T]` — result for “normalised enrichment score”: -0.0753.
Under “normalised enrichment score”, `TSVRRAFFTGGSD [L7F]` is recorded as -0.091.
Under “normalised enrichment score”, `TSVRDALFTGGSD [R5D]` is recorded as -0.0908.
`TSVRRALKTGGSD [F8K]` — result for “normalised enrichment score”: -0.194.
Under “normalised enrichment score”, `TSVRRALETGGSD [F8E]` is recorded as -0.00823.
`TSMRRALFTGGSD [V3M]` — result for “normalised enrichment score”: -0.211.
Under “normalised enrichment score”, `TSVRRALFTGQSD [G11Q]` is recorded as 0.0558.
`TSVRRAHFTGGSD [L7H]` — result for “normalised enrichment score”: 0.259.

Other studies, line by line
COC(=O)c1cc(N(C)C(=O)c2ccn3ncc(-c4ccc(C(=O)O)cc4)c3c2)ccc1Cl gave an IC50 of greater than 30 µM (Insulin receptor (INSR, Homo sapiens, UniProt P06213); enzyme activity, inhibitor).

A few entries again (set 2):
`NTTAPQLVYPPMYQI` — result for “enrichment fold change”: 8.78.
Under “enrichment fold change”, `HVHGASPHSRNHSA` is recorded as 6.13.
`HIKWSTGWHHQGRT`: “enrichment fold change” 3.83.
`HPHGHRNTAISWTAM` — result for “enrichment fold change”: 4.59.
